Measurements collected from several papers.
A part holds a random share of what one study measured. Substitutions count along the parent as printed.
Sequence of UniProt Q13873 (whole entry, looked up): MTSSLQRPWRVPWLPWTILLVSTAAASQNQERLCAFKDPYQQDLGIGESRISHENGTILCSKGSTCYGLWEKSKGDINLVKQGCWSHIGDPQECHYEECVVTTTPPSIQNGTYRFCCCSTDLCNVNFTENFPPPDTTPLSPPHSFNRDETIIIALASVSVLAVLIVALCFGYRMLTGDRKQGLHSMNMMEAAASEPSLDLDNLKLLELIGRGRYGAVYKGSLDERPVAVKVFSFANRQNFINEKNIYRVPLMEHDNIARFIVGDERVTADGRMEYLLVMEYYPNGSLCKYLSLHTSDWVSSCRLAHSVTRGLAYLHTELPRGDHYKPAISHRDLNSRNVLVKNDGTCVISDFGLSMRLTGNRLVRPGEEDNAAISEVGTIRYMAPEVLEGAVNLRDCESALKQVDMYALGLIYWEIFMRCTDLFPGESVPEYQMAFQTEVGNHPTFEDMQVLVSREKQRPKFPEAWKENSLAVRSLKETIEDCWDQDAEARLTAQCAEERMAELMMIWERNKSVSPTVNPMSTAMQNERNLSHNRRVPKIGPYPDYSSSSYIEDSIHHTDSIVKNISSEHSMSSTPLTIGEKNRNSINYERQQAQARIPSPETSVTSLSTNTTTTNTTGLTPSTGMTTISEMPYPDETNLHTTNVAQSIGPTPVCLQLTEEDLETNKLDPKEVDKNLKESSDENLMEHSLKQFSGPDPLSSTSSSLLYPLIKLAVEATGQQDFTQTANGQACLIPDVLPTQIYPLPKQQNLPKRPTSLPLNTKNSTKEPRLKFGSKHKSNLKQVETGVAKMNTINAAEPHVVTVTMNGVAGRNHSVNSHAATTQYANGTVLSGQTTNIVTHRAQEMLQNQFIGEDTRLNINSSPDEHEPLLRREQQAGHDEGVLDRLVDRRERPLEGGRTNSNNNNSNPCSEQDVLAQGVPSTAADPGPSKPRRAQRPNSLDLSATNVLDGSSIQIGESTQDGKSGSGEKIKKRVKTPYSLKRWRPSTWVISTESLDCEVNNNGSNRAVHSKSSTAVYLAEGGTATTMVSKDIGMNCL
Sequence of UniProt Q07912 (whole entry, looked up): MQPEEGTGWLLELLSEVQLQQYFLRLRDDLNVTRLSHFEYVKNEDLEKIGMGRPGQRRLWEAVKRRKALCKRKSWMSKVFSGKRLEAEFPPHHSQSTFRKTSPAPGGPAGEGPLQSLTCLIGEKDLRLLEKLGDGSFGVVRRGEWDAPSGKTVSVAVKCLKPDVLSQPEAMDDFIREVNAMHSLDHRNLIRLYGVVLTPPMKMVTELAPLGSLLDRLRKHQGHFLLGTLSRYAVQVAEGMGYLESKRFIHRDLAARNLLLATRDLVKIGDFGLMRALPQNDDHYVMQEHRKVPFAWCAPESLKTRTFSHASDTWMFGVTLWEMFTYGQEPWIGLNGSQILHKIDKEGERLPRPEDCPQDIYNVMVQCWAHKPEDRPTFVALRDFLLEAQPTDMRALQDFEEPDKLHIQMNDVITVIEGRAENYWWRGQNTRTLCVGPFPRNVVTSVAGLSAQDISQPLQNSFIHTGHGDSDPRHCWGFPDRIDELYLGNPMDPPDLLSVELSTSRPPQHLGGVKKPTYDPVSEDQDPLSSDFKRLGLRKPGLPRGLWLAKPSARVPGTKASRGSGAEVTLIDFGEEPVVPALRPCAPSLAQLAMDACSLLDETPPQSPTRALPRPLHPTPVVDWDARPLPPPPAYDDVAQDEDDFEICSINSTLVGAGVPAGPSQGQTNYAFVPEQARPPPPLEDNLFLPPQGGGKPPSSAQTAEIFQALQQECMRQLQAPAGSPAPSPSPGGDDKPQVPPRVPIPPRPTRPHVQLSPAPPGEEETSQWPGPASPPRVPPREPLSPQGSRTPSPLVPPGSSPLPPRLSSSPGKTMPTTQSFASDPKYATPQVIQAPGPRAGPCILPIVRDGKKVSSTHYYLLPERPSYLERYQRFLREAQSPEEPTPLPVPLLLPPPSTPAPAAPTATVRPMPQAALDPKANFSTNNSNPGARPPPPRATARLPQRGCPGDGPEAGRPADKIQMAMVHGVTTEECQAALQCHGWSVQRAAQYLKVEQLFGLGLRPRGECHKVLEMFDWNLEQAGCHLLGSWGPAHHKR

Set 1 — method: DHFR PCA, deep sequencing; medium: yeast; together with: (+)-ABA 2500 µM; relative to: wild-type fitted maximum; reading: higher = stronger binding
Target: ABI1, truncated, D143A, DHFR fusion (Arabidopsis thaliana)
Notes: methotrexate growth selection, single substitutions
Starting sequence: PYL1, truncated, DHFR fusion (Arabidopsis thaliana); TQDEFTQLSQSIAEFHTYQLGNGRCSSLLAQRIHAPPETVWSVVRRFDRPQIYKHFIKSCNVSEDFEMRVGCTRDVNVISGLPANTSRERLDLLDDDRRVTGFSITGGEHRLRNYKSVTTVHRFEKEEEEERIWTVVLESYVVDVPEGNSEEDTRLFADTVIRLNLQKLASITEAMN; partner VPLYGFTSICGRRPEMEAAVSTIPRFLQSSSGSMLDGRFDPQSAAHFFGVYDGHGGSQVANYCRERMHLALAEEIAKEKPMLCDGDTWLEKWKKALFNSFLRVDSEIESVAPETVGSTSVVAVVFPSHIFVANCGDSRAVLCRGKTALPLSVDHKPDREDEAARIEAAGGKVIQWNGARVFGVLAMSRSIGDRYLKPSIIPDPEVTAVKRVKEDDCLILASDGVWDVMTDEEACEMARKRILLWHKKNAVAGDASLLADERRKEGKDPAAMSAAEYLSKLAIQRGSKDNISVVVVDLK
| Substitution | relative binding score |
| --- | --- |
| N149K | 71.2% |
| K168N | 99% |
| V145Q | 89.3% |
| V43P | 26.3% |
| I52Q | 91.6% |
| V143M | 93.3% |
| S117V | 37.4% |
| K168V | 94.5% |

Set 2 — method: RNA Bind-n-Seq; form: RNA; medium: in vitro; concentration: 365 nM; relative to: no-protein control; reading: higher = stronger binding
Target: RNA binding protein fox-1 homolog 2, RRM domain, GST-SBP tag (RBFOX2, Homo sapiens, UniProt O43251-10, residues 100-194)
Notes: natural RNA segment, single round, ends assumed
Shared flanks, not repeated: GGGAGUUCUACAGUCCGACGAUC … UGGAAUUCUCGGGUGCCAA
Construct (chain): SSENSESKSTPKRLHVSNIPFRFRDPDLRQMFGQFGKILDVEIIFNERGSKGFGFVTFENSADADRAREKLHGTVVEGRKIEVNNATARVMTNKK
| Sequence | RBNS enrichment (R) |
| --- | --- |
| GUGUAUUGUGCCUUGUGGUGAGUAAUAAAUUAUGGCCAUUGGAAACAUUGUACAUUUAGUGUGUGUAUUUUAAUAAUGGUUGAUCUUAAAUCUGUAUACAAAAUAUCACU | 0.367 |
| UCCCGUCCGCUGUGGGUGGUCCCCAGCUCUCCUCUGUGGGUUUUACCGGAAAGGUGGCCCCAGCUGUUGACUUCCAGUCACUGUCCCAGACGGCACAAGGUUUUCUGUAG | 0.216 |
| AUCAAAACAGUGAGCACCGUAUGAAUGAGAGCUGAAGAAGGACUUUUAUUUUGUUAUAACAUUGUUACCUUGUCAGUAUUAUUUCAAAGGUUCUUUGAAGAAUAGGGGGG | 0.451 |
| AGGUCUGAGCUUGUGAAAAGAAAGUGGUUGGUCUGAGGUUGGAGGAAGCUGAAUGGAAUCUGACGGUUGGGAGUGGUGGAAAUUGGAAGGAUACCAGGAGGUAUUUGGGA | 1.33 |
| UAAAGAACUGAACCCUAAAUCAGCUCCCACUAAUGAAACCCUGCUUUCCUUGUAUCUUUUAAACUCAGUUCUGCAUCCAACUUGAGAAGAAAAAAAGCUUCUUUCCAUAU | 3.48 |
| CUACUUCCUUGGAACCAUCUCCAAAUUCCAAAUAGCCAACAACCCCCAACAUUAUAUACUCUGCUGCUUUUGUCUGGAAAACUCUACAGUGUUUGUGGGAUAUCCCCAAA | 0.615 |
| UUAUGCACGGAACUCUGUUUCUAAGUGCCAAGCACAGAAAGCCGCUAAAUAAAAUCUUUGCAAUUGUUUCUGCAUGUUUGUUCAUACAGAAAAAUCAAAUAACAGCCUUG | 0.476 |
| AGGAAUUAUUGUUAUUUAAUAAAUAUUUCAGGAUAUUUUUCCUCUACAAUAAAGUAACAAUUAACUUAUGUUUUUGUGCUUCAGAGUGAUCCAUUUGAUCAAGCAUUGUA | 0.46 |

Single results of other studies
| Structure (SMILES) | target | assay | conditions | how to read | quantity | value |
| --- | --- | --- | --- | --- | --- | --- |
| C[C@H](c1ccc(F)cc1)N(Cc1cccc(C(=O)O)c1)C(=O)c1cnc2ccccc2c1 | Bone morphogenetic protein receptor type-2 (BMPR2, Homo sapiens, UniProt Q13873) | cell-free assay, competition with immobilised ligand | 1 µM |  | remaining binding | 75% |
| CC(C)[C@H](CO)Nc1nc(Nc2cccc(Cl)c2)c2ncn(C(C)C)c2n1 | Activated CDC42 kinase 1 (TNK2, Homo sapiens, UniProt Q07912) | enzyme activity, inhibitor | 0.5 µM | relative to: control | remaining activity | 55.6% |

For quick reference, copied from above (single results of other studies):
| Structure (SMILES) | target | assay | conditions | how to read | quantity | value |
| --- | --- | --- | --- | --- | --- | --- |
| C[C@H](c1ccc(F)cc1)N(Cc1cccc(C(=O)O)c1)C(=O)c1cnc2ccccc2c1 | Bone morphogenetic protein receptor type-2 (BMPR2, Homo sapiens, UniProt Q13873) | cell-free assay, competition with immobilised ligand | 1 µM |  | remaining binding | 75% |
| CC(C)[C@H](CO)Nc1nc(Nc2cccc(Cl)c2)c2ncn(C(C)C)c2n1 | Activated CDC42 kinase 1 (TNK2, Homo sapiens, UniProt Q07912) | enzyme activity, inhibitor | 0.5 µM | relative to: control | remaining activity | 55.6% |
